Measurements pooled from the literature.
Parts stem from different laboratories: compare values within a part only.

Study 1
Cell line: HEK-293T/ACE2
Concentration: concentration not given
Time: 16 (unit not given)
Relative to: vehicle
| Structure (SMILES) | viability [%] |
| --- | --- |
| CC(=O)N[C@H]1[C@H]([C@H](O)[C@H](O)CO)OC(C(=O)O)=C[C@@H]1N=C(N)N | 106 |
| C[C@H](O)C(=O)Nc1c(I)c(C(=O)NC(CO)CO)c(I)c(C(=O)NC(CO)CO)c1I | 104 |
| CCCCCCCCCC(=O)O[C@H]1CC[C@H]2[C@@H]3CCC4=CC(=O)CC[C@@H]4[C@H]3CC[C@]12C | 104 |
| COCC(=O)Nc1c(I)c(C(=O)NCC(O)CO)c(I)c(C(=O)N(C)CC(O)CO)c1I (centres unmarked) | 100 |

Study 2
Target: Replicase polyprotein 1ab, main protease (rep, Severe acute respiratory syndrome coronavirus 2, UniProt P0DTD1)
Effect on: enzyme activity
Mode: inhibitor
| Structure (SMILES) | IC50 |
| --- | --- |
| O=C(O)/C(S)=C/c1ccc(I)cc1 | 20.3 µM |
| O=C(O)c1cc(N2N=C(C(F)(F)F)/C(=C/c3ccc(-c4ccccc4)o3)C2=O)ccc1Cl | > 20 µM |
| Cc1ccc(C(=O)n2nc(-c3cccnc3)nc2N)cc1 | 5.07 µM |

Study 3
Target: Replicase polyprotein 1ab, nsp13 helicase (rep, Severe acute respiratory syndrome coronavirus 2, UniProt P0DTD1)
Effect on: helicase activity
Organism: SARS-CoV-2
Concentration: 20 µM
| SMILES | inhibition [%] |
| --- | --- |
| Cc1nc(C#Cc2ccnc(Cl)c2)c(C)n1-c1ccc(OC(F)(F)F)cc1 | 99.6 |
| O=C(/C=C/c1ccc2ccccc2n1)c1ccncc1 | 91.3 |
| O=C1C=Cc2cc(Br)ccc2C1=O | 100 |
| Cc1ccc(S(=O)(=O)/C=C/C#N)cc1 | 99.2 |
| O=C(O)c1ccc(N2C(=O)/C(=C\c3ccc(-c4ccc([N+](=O)[O-])cc4)o3)C=C2c2ccccc2)cc1 | 70.5 |
| O=c1[nH]nc(Sc2ncc([N+](=O)[O-])s2)n1-c1ccc2c(c1)OCCO2 | 96.8 |
| CC(=O)OC[C@H]1O[C@@H]([S-])[C@H](OC(C)=O)[C@@H](OC(C)=O)[C@@H]1OC(C)=O.CCP(CC)CC.[Au+] | 101 |
| CCN(CC)C(=S)S | 72.1 |
| CO/N=C(\C(=O)N[C@@H]1C(=O)N2C(C(=O)O)=C(CSC(=O)c3ccco3)CS[C@H]12)c1csc(N)n1 | 74.4 |
| CC(C)n1nc(C#Cc2ccccc2)c2c(N)ncnc21 | 100 |
| CCn1c(N)c(C(=O)NC)c(=O)c2ccc(C#C[C@@](C)(O)COC)nc21 | 99.9 |
| CCC(C)SSc1ncc[nH]1 (centres unmarked) | 100 |
| O=C(O)[C@@H](S)[C@@H](S)C(=O)O | 99.9 |

Other studies, line by line
rep main protease: Replicase polyprotein 1ab, main protease (rep, Severe acute respiratory syndrome coronavirus 2, UniProt P0DTD1)
| Compound | target or system | test | system | setting | endpoint | result |
| --- | --- | --- | --- | --- | --- | --- |
| CC(=O)c1ccc(O)c(O)c1 | rep main protease | reporter gene (Gaussia luciferase), inhibitor | – | 20 µM | inhibition | -0.782% |
| CCc1ccc(Sc2cc(C(=O)NCCCN3CCCC(C)C3)c3ccccc3n2)cc1 (centres unmarked) | SARS-CoV-2 | cytopathic effect | USA_WA1/2020 | retest 8-point | maximum response | 84.1% |
| CC[C@H](C)[C@H](NC(=O)[C@H](CC(C)C)NC(=O)[C@H](Cc1c[nH]c2ccccc12)NC(=O)[C@H](CCC(N)=O)NC(=O)[C@@H](NC(=O)[C@H](Cc1ccccc1)NC(=O)[C@H](C)NC(=O)[C@H](CCCCNC(=O)COCCOCCNC(=O)COCCOCCNC(=O)CC[C@H](NC(=O)CCCCCCCCCCCCCCCCCCC(=O)O)C(=O)O)NC(=O)[C@H](CCC(N)=O)NC(=O)[C@H](C)NC(=O)[C@@H](NC(=O)[C@H](CCCCN)NC(=O)[C@H](CC(=O)O)NC(=O)[C@H](CC(C)C)NC(=O)C(C)(C)NC(=O)[C@@H](NC(=O)[C@H](CO)NC(=O)[C@H](Cc1ccc(O)cc1)NC(=O)[C@H](CC(=O)O)NC(=O)[C@H](CO)NC(=O)[C@@H](NC(=O)[C@H](Cc1ccccc1)NC(=O)[C@@H](NC(=O)CNC(=O)[C@H](CCC(=O)O)NC(=O)C(C)(C)NC(=O)[C@@H](N)Cc1ccc(O)cc1)[C@@H](C)O)[C@@H](C)O)[C@@H](C)CC)[C@@H](C)CC)C(C)C)C(=O)N[C@@H](C)C(=O)NCC(=O)NCC(=O)N1CCC[C@H]1C(=O)N[C@@H](CO)C(=O)N[C@@H](CO)C(=O)NCC(=O)N[C@@H](C)C(=O)N1CCC[C@H]1C(=O)N1CCC[C@H]1C(=O)N1CCC[C@H]1C(=O)N[C@@H](CO)C(N)=O | – | – | patients with type 2 diabetes, plasma | 0.5 mg repeated, day 22, geometric mean | apparent volume of distribution (Vz/F) | 10.4 L |
| Cc1cc(Nc2ncc(Cl)c(Nc3ccccc3S(=O)(=O)C(C)C)n2)c(OC(C)C)cc1C1CCNCC1 | rep main protease | reporter gene (Gaussia luciferase), inhibitor | – | 20 µM | inhibition | -6.47% |
| CCCCN(CCCC)CCCNC(=O)c1ccc2nc(N3CCCCC3)sc2c1 | SARS-CoV-2 | cytopathic effect, cell-based CPE | USA_WA1/2020 | – | AC50 | 14.1 µM |
| CC(NC(=O)C(Cc1ccccc1)NC(=O)OCc1ccccc1)C(=O)CF (centres unmarked) | SARS-CoV-2 | viral replication | Huh-7 | 48 h | EC50 | 9.61 µM |

For quick reference, copied from above (study 3):
| SMILES | inhibition [%] |
| --- | --- |
| Cc1ccc(S(=O)(=O)/C=C/C#N)cc1 | 99.2 |
| O=C(O)c1ccc(N2C(=O)/C(=C\c3ccc(-c4ccc([N+](=O)[O-])cc4)o3)C=C2c2ccccc2)cc1 | 70.5 |
